Assay results from different studies.
Protocols differ between the studies behind these lines. “And” joins repeats or separate records; there may be more than shown. Numbers after ± are the reported error. Converted amounts (≈) assume the structure as drawn.

SMILES	tested on	assay	test system	conditions	scale	endpoint	value
CS(C)(=O)=Nc1ccc(-c2ccc(-c3nc4cc(O[C@@H]5CO[C@H]6[C@@H]5OC[C@H]6O)[nH]c4cc3F)cc2)cc1	tryptase human	enzyme activity	–	10 µM	–	inhibition	5%
COc1ccccc1-c1n[nH]c2nc(N[C@H]3CC[C@H](NS(=O)(=O)CC(C)C)CC3)ncc12	LMJF.03.0980	bead binding competition	Leishmania donovani extract	10 µM	baseline: vehicle	relative abundance	1.15
Cc1ccc2c(n1)c(-c1cccc(S(C)(=O)=O)c1)c(C)n2C/C(F)=C/CN	NMDA glutamate receptor (rat)	binding, radioligand binding	rat tissue	10 µM, Phencyclidine	–	inhibition	0%
CC[C@@H]1CN2CCc3c([nH]c4cccc(OC)c34)[C@@H]2C[C@@H]1/C(=C\OC)C(=O)OC	rabbit anti-mitragynine polyclonal IgG	antigen binding, competitor, competitive indirect ELISA	10% methanol	30 min antibody-standard, 90 min antibody-antigen incubation	–	IC50	1.21 µg/mL and 1 µg/mL
CC[C@H](C)[C@@H]1NC(=O)CNC(=O)[C@H](CC(=O)O)NC(=O)[C@H](CC(=O)O)NC(=O)[C@@H]2CSSC[C@@H]3NC(=O)[C@H](Cc4c[nH]cn4)NC(=O)[C@H](CCCNC(=N)N)NC(=O)[C@H](CCCNC(=N)N)NC(=O)[C@@H](NC(=O)[C@H](CO)NC(=O)[C@@H](N)Cc4c[nH]cn4)CSSC[C@H](NC(=O)[C@H](C)NC(=O)[C@H](Cc4c[nH]c5ccccc45)NC(=O)CNC(=O)[C@H](CSSC[C@@H](C(=O)N[C@@H](CCCCN)C(=O)N4CCC[C@H]4C(=O)N[C@@H](CC(C)C)C(=O)N[C@@H](CCCNC(=N)N)C(=O)N[C@H](C(=O)O)C(C)C)NC1=O)NC(=O)[C@H](CCCNC(=N)N)NC(=O)[C@H](CCCNC(=N)N)NC(=O)[C@H](CC(N)=O)NC(=O)[C@H](CCC(=O)O)NC(=O)[C@H](Cc1c[nH]cn1)NC3=O)C(=O)N[C@@H](Cc1ccc(O)cc1)C(=O)N2	hKv1.3 human	–	–	concentration not given	–	ion current	no effect
O=C1NC2(CC2)COc2ncc(F)cc2[C@H]2COCCN2c2ccn3ncc1c3n2	–	–	Sprague-Dawley rat, female, liver	oral, 20 mg/kg/day, 4 weeks, end of treatment	–	organ-to-body weight ratio	3.5 ± 0.332%
COCC(=O)N1CCc2cc(-c3csc(NC(=O)c4cc(OC)cc(OC)c4)n3)ccc21	NMDA receptor phencyclidine site, rat	radioligand binding	–	10 µM	–	inhibition	1%
CC(C)[C@H](NC(=O)C(NC(=O)CC[C@H](N)C(=O)O)C(O)C(N)=O)C(=O)N(C)CC(=O)N[C@H](Cc1c[nH]c2ccc([N+](=O)[O-])cc12)C(=O)NC[C@@H]1NC(=O)[C@@H](Cc2c[nH]c3ccc([N+](=O)[O-])cc23)NC1=O (stereo partly shown)	TrmD	–	Escherichia coli, engineered MG1655 TrmD-expressing tolC+	M9 medium with arabinose	–	MIC	100 µM (≈ 97.8 µg/mL)
CSCC[C@H](NC(=O)[C@H](CCC(=O)O)NC(=O)[C@H](CS)NC(=O)[C@H](Cc1ccccc1)NC(=O)[C@H](CC(N)=O)NC(=O)[C@@H]1CCCN1C(=O)[C@@H]1CCCN1C(=O)[C@H](CC(N)=O)NC(=O)[C@H](CC(C)C)NC(=O)[C@H](CCSC)NC(=O)[C@H](CC(C)C)NC(=O)[C@H](CS)NC(=O)[C@H](CCC(N)=O)NC(=O)CNC(=O)[C@H](Cc1ccc(O)cc1)NC(=O)[C@@H](NC(=O)[C@@H](NC(=O)[C@@H]1CCCN1C(=O)[C@@H](N)CS)C(C)C)[C@@H](C)O)C(=O)N[C@@H](CC(=O)O)C(=O)NCC(=O)N[C@@H](CCC(N)=O)C(=O)N[C@@H](CS)C(=O)N[C@@H](CCCCN)C(=O)O	JNK (mouse)	Western blot	RAW264.7	1 µg/mL	baseline: vehicle	JNK/β-actin ratio	decreased
Nc1ncc(-c2cc(-c3cnn(CC(F)(F)F)c3)ncc2F)nc1C(=O)NC1CNCC(F)C1 (stereo not shown)	ABL1(T315I)-phosphorylated	KINOMEscan competition binding	–	1 µM	baseline: DMSO control	remaining binding	58%

Some of these lines once more:
SMILES	tested on	assay	test system	conditions	scale	endpoint	value
CS(C)(=O)=Nc1ccc(-c2ccc(-c3nc4cc(O[C@@H]5CO[C@H]6[C@@H]5OC[C@H]6O)[nH]c4cc3F)cc2)cc1	tryptase human	enzyme activity	–	10 µM	–	inhibition	5%
